Measurements pooled from the literature.
Each numbered part is a random draw from the data of one study; scales do not carry over between parts. Positions count from the first letter of the parent shown.

Study 1
Target: Histone acetyltransferase KAT6A, winged helix 2, GST fusion (KAT6A, Homo sapiens, UniProt Q92794, residues 85-181)
Method: protein binding microarray
Molecule type: double-stranded DNA, one strand shown
Sample: in vitro
Tested at: not given
Notes: 8-mer, flanks averaged, mean of 2 arrays, mostly near background
Baseline: not given
Direction: higher = stronger binding
Target sequence (chain): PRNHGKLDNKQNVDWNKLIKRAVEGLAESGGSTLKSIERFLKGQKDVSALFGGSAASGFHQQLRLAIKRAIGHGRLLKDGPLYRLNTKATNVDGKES
Oligonucleotide	E-score
AACGTTGT	-0.221
CTCAAAAG	0.00298
TAAATCGA	0.0526
CGAGTCCC	-0.0203
ATGCATAC	-0.242
ATGAGAAC	-0.148
TCAACGCA	0.0849
GACGTGCA	-0.0623
AGGGGATG	-0.0141
CACAGTGG	0.0982
AATCCACC	-0.0909
AGTAGGAG	-0.103
ATTTAAGG	0.0307
AAATTGGG	-0.00187
GCCTTTCA	-0.00988
CAGGGCGC	0.208
GCACTCGC	0.216
CTACAGCC	-0.106
ACCGACCG	0.0197
GCCAGTCC	0.0288
AGTTCATA	0.0038
AGTTATGA	-0.171
AAGCGGTG	-0.0453
AGTACCAC	-0.141
ATACCTTA	-0.0847

Study 2
Target: ABI1, truncated, D143A, DHFR fusion (Arabidopsis thaliana)
Method: DHFR PCA, deep sequencing
Sample: yeast
Notes: methotrexate growth selection, single substitutions
Together with: (+)-ABA 0.11 µM
Baseline: wild-type fitted maximum
Direction: higher = stronger binding
Starting sequence: PYL1, truncated, DHFR fusion (Arabidopsis thaliana); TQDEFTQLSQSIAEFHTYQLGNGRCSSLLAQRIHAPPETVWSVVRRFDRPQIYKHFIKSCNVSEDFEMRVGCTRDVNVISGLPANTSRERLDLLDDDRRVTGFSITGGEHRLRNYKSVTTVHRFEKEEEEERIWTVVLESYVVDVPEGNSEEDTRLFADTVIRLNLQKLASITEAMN; partner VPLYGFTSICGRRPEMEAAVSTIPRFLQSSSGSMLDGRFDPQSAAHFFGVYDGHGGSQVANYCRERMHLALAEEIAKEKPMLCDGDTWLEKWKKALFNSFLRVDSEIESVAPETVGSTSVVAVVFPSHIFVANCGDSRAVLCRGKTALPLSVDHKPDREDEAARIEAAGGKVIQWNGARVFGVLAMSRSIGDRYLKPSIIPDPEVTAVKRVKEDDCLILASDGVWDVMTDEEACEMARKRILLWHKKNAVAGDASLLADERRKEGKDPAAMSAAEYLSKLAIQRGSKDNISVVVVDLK
Change	relative binding score [%]
L29T	-2.33
I12M	2.43
S26F	-1.59
E139Q	27.3
V137K	-4.62
T39G	-0.747
C25V	61.4
M176H	10.7
G148N	-4.36
V70T	2.66
P146V	29.6

Study 3
Target: CCNB3, cyclin fold, Cln2 fusion (human)
Method: yeast growth competition, sequencing
Sample: yeast
Notes: weak parent motif
Baseline: not given
Direction: higher = stronger binding
Starting sequence: MASTL docking peptide (human); PMIAKNLMCELDE; partner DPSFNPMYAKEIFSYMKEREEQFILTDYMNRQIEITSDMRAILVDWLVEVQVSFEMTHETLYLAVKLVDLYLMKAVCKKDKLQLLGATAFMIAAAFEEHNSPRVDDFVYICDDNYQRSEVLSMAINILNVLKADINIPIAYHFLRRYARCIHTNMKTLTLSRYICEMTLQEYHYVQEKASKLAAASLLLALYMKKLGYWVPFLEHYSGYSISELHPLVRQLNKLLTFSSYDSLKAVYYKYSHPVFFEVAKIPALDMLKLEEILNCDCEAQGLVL
Change	normalised enrichment score
PMIAKNLMCELSE [D12S]	-0.042
PMIPKNLMCELDE [A4P]	0.382
PMIMKNLMCELDE [A4M]	0.0303
PMIAKPLMCELDE [N6P]	-0.0355
PMICKNLMCELDE [A4C]	-0.0827
PMIAKNLMCYLDE [E10Y]	0.295
PMIAKRLMCELDE [N6R]	0.234
PMIVKNLMCELDE [A4V]	0.454
PMIAKSLMCELDE [N6S]	-0.184
PMIAKNKMCELDE [L7K]	0.122
PMKAKNLMCELDE [I3K]	-0.00361
PMIAKKLMCELDE [N6K]	0.352
PMIAKNLMQELDE [C9Q]	-0.0539
PMDAKNLMCELDE [I3D]	-0.123
PMIAKNLMCELGE [D12G]	0.0107
PMIATNLMCELDE [K5T]	0.00469
PMIAKNLMRELDE [C9R]	0.0326
PRIAKNLMCELDE [M2R]	0.0861
PMIYKNLMCELDE [A4Y]	0.017
PMIRKNLMCELDE [A4R]	0.499
PMIAKNLMCCLDE [E10C]	0.0265

Study 4
Target: Prothrombin, mature alpha-thrombin (F2, Homo sapiens, UniProt P00734)
Method: aptamer microarray, sandwich
Molecule type: DNA with 2'F-ANA
Sample: in vitro
Tested at: 200 nM
Notes: whole 15-mer aptamer, many near background
Together with: Cy3 exosite-II aptamer, 400 nM
Direction: higher = stronger binding
Oligonucleotide: GGTTGGTGTGGTTGG
Modification	mean fluorescence intensity [a.u.]
2'F-ANA at 2 6 7 8 9 11 15	343
2'F-ANA at 3 4 5 6 7 8 10 11 12 13 15	52
2'F-ANA at 1 4 5 9 11 13 14 15	47
2'F-ANA at 1 2 4 7 8 11 12 13	207
2'F-ANA at 1 15	227
2'F-ANA at 1 4 5 8 9 13	62.8
2'F-ANA at 6 7 8 11 13	496
2'F-ANA at 1 4 5 7 8 9 11 12 15	90.9
2'F-ANA at 1 3 5 10 11 12 15	54.7
2'F-ANA at 2 3 4 5 7 10 12 13 15	54
2'F-ANA at 1 2 5 6 7 9 11 14 15	61.8
2'F-ANA at 1 2 4 5 7 8 9 13	48.3
2'F-ANA at 1 4 6 10	71.9
2'F-ANA at 2 3 7 8 12 13	1050
2'F-ANA at 2 4 8 10 13 15	154
2'F-ANA at 1 4 9 10 12 15	58.6
2'F-ANA at 1 5 9 10 15	45.6
2'F-ANA at 6 7 8 13 15	444
2'F-ANA at 3 5 6 10 12	60.6
2'F-ANA at 2 4 5 6 7 8 9 10 12 15	145

Study 5
Target: Sal-like protein 4, full length isoform B (SALL4, Homo sapiens, UniProt Q9UJQ4-2, residues 1-616)
Method: universal PBM
Molecule type: double-stranded DNA, one strand shown
Sample: in vitro
Tested at: not given
Notes: 8-mer, flanks averaged, mean of replicates
Direction: higher = stronger binding
Construct (chain): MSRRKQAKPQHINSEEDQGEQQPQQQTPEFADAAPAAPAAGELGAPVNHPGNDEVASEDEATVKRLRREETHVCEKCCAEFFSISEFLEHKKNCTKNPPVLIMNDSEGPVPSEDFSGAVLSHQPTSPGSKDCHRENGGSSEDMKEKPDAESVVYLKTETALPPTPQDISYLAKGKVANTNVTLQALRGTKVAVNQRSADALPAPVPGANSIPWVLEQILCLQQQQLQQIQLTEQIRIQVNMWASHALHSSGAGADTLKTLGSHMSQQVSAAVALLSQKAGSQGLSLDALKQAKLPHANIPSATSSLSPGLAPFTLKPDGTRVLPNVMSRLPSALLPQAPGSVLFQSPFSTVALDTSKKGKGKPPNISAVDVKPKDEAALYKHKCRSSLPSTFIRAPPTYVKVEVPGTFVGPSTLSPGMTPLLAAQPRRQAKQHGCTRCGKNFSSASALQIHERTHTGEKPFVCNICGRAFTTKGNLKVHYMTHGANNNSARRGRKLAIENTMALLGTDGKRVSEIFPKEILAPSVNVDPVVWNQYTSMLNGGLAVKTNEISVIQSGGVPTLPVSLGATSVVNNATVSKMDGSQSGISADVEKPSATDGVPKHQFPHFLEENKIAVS
Oligonucleotide	E-score
GATACCAC	-0.0186
ACGGGAGC	-0.27
GAATGCCC	-0.22
CAAAAAAG	0.22
GTCATGGA	-0.0201
CGGTGCTC	-0.246
ATACCTAC	0.2
ATTGGAAC	0.179
ACATGTGG	0.133
AGCGTGTA	0.0934
ATTACCGA	0.0895
AGGTGCTC	-0.27
TGGACACA	-0.0121
ACGTCAAA	0.15
GACACTCC	-0.128
CACCAACC	-0.207

Further values, each from its own experiment
Molecule	target	assay	system	conditions	how to read	measurement	value
PhoQ, residues 284 288 289 292 302 303 AGHLVA	PhoP, residues 12 14 15 18 19 NFCKL (Escherichia coli, UniProt P23836)	Sort-seq, measured: YFP reporter	E. coli	PhoQ-PhoP variant library, together with: 10 µM Mg2+	baseline: high Mg2+ state, higher = stronger signaling	fold induction	1.03

A few entries again (study 3):
Change	normalised enrichment score
PMIAKSLMCELDE [N6S]	-0.184
PMIAKNKMCELDE [L7K]	0.122
PMKAKNLMCELDE [I3K]	-0.00361
PMIAKKLMCELDE [N6K]	0.352
PMIAKNLMQELDE [C9Q]	-0.0539
PMDAKNLMCELDE [I3D]	-0.123
